Assay results from different studies.
Protocols differ between the studies behind these lines. ± gives the spread as reported.
Organism: Staphylococcus aureus

O=[N+]([O-])c1ccc(-n2ccnc2)c([N+](=O)[O-])c1 — MIC (microbial growth; ATCC25923): 125 µg/mL
CC(C)C[C@H](NC(=O)CN)C(=O)N[C@@H](C)C(=O)N[C@@H](CC(=O)O)C(=O)N[C@@H](Cc1ccccc1)C(=O)N[C@@H](CC(C)C)C(=O)N[C@@H](CC(N)=O)C(=O)N[C@@H](CCCCN)C(=O)N[C@@H](C)C(=O)N[C@H](C(=O)NCC(=O)N[C@@H](CCCCN)C(=O)N[C@H](C(=O)N[C@H](C(=O)N[C@@H](CC(=O)O)C(=O)N[C@@H](Cc1ccccc1)C(=O)N[C@H](C(=O)N[C@@H](CCCCN)C(=O)N[C@@H](CO)C(N)=O)C(C)C)C(C)C)C(C)C)C(C)C — MIC (broth microdilution; USA300 LAC; 37 °C): > 100 µM
O=c1cc(C(F)(F)F)[nH]c2cc(C(F)(F)F)cc(Nc3ccc(C(F)(F)F)cn3)c12 — MIC: < 0.125 µg/mL
CC[C@H](C)[C@H](NC(=O)CN)C(=O)NCC(=O)N[C@@H](C)C(=O)N[C@H](C(=O)N[C@@H](CC(C)C)C(=O)N[C@@H](CCCCN)C(=O)N[C@H](C(=O)N[C@@H](CC(C)C)C(=O)N[C@H](C(=O)N[C@H](C(=O)NCC(=O)N[C@@H](CC(C)C)C(=O)N1CCC[C@H]1C(=O)N[C@@H](C)C(=O)N[C@@H](CC(C)C)C(=O)N[C@H](C(=O)N[C@@H](CO)C(=O)N[C@@H](Cc1c[nH]c2ccccc12)C(=O)N[C@H](C(=O)N[C@@H](CCCCN)C(=O)N[C@@H](CCCNC(=N)N)C(=O)N[C@@H](CCCCN)C(=O)N[C@@H](CCCNC(=N)N)C(=O)N[C@@H](CCC(N)=O)C(=O)N[C@@H](CCC(N)=O)C(N)=O)[C@@H](C)CC)[C@@H](C)CC)[C@@H](C)O)[C@@H](C)O)C(C)C)C(C)C — MIC (broth microdilution; KCTC 1621; 16 h, 37 °C): 0.8 µM
CC(C)C[C@H](NC(=O)[C@H](CCC(=O)O)NC(=O)[C@H](CCC(=O)O)NC(=O)[C@@H](NC(=O)[C@H](CCCNC(=N)N)NC(=O)[C@H](CCC(N)=O)NC(=O)[C@@H](N)CCCNC(=N)N)C(C)C)C(=O)N[C@@H](CO)C(=O)N[C@@H](CCCCN)C(=O)N[C@@H](Cc1ccccc1)C(=O)N[C@@H](CO)C(=O)N[C@@H](CCCCN)C(=O)N[C@@H](CCCCN)C(=O)NCC(=O)N[C@@H](C)C(=O)N[C@@H](C)C(=O)N[C@@H](C)C(=O)N[C@@H](CCCNC(=N)N)C(=O)N[C@@H](CCCNC(=N)N)C(=O)N[C@@H](CCCNC(=N)N)C(=O)N[C@@H](CCCCN)C(=O)O — MIC (broth microdilution; USA300 LAC; 37 °C): > 84 µM
CN[C@H](CC(C)C)C(=O)N[C@H]1C(=O)N[C@@H](CC(N)=O)C(=O)N[C@H]2C(=O)N[C@H]3C(=O)N[C@H](C(=O)N[C@H](C(=O)O)c4cc(O)cc(O)c4-c4cc3ccc4O)[C@H](O)c3ccc(c(Cl)c3)Oc3cc2cc(c3O[C@@H]2O[C@H](CO)[C@@H](O)[C@H](O)[C@H]2O[C@H]2C[C@](C)(N)[C@H](O)[C@H](C)O2)Oc2ccc(cc2Cl)[C@H]1O — MIC (VRSA VRS1/HIP11714; 20 h): > 200 µg/mL
CC[C@H](C)[C@H](NC(=O)[C@H](CCCCN)NC(=O)[C@H](CCC(=O)O)NC(=O)[C@H](CCCCN)NC(=O)[C@H](CO)NC(=O)[C@H](CCCCN)NC(=O)[C@H](CCCNC(=N)N)NC(=O)[C@H](Cc1ccccc1)NC(=O)[C@H](Cc1ccccc1)NC(=O)[C@H](CC(=O)O)NC(=O)CNC(=O)[C@H](CC(C)C)NC(=O)[C@@H](N)CC(C)C)C(=O)NCC(=O)N[C@@H](CCCCN)C(=O)N[C@@H](CCC(=O)O)C(=O)N[C@@H](Cc1ccccc1)C(=O)N[C@@H](CCCCN)C(=O)N[C@@H](CCCNC(=N)N)C(=O)N[C@H](C(=O)N[C@H](C(=O)N[C@@H](CCC(N)=O)C(=O)N[C@@H](CCCNC(=N)N)C(=O)N[C@H](C(=O)N[C@@H](CCCCN)C(=O)N[C@@H](CC(=O)O)C(=O)N[C@@H](Cc1ccccc1)C(=O)N[C@@H](CC(C)C)C(=O)N[C@@H](CCCNC(=N)N)C(=O)N[C@@H](CC(N)=O)C(=O)N[C@@H](CC(C)C)C(=O)N[C@H](C(=O)N1CCC[C@H]1C(=O)N[C@@H](CCCNC(=N)N)C(=O)N[C@H](C(=O)N[C@@H](CCC(=O)O)C(=O)N[C@@H](CO)C(=O)O)[C@@H](C)O)C(C)C)[C@@H](C)CC)C(C)C)[C@@H](C)CC — MIC (broth microdilution; media-adapted JE2; 18 to 20 h): 192 µg/mL
CC[C@H](C)[C@H](NC(=O)[C@H](CCCCN)NC(=O)[C@H](CCCNC(=N)N)NC(=O)[C@@H](NC(=O)[C@H](CC(C)C)NC(=O)[C@H](CCCCN)NC(=O)[C@H](CC(C)C)NC(=O)[C@@H](NC(=O)[C@H](CCCCN)NC(=O)CNC(=O)[C@H](Cc1ccccc1)NC(=O)[C@@H](N)Cc1ccccc1)C(C)C)[C@@H](C)CC)C(=O)N[C@@H](Cc1ccccc1)C(N)=O — MIC (broth microdilution; USA300 LAC; 37 °C): 3.1 µM
COc1cccc(C(N)=O)c1O — MIC (ATCC 29213; 50 µg/mL): inactive
CC(C)C[C@H](N)C(=O)N[C@@H](CS)C(=O)N1CCC[C@H]1C(=O)N[C@@H](Cc1c[nH]cn1)C(=O)N[C@@H](CCCNC(=N)N)C(=O)N[C@@H](CS)C(=O)O — MIC (broth microdilution; MTCC 96; 37 °C): 90 µg/mL
CC(C)C[C@H](NC(=O)[C@H](C)NC(=O)[C@H](CCCCN)NC(=O)[C@H](CC(C)C)NC(=O)[C@H](CC(C)C)NC(=O)[C@H](CCCCN)NC(=O)[C@H](CCCCN)NC(=O)[C@H](CC(C)C)NC(=O)[C@H](CC(C)C)NC(=O)[C@H](CCCCN)NC(=O)[C@H](CC(C)C)NC(=O)[C@H](CC(C)C)NC(=O)[C@@H](N)CCCCN)C(=O)NCC(N)=O — MIC (SH1000 GFP-expressing, nutrient broth; 20 h, 37 °C): 33 µM
CC(C)[C@H](NC(=O)[C@H](CO)NC(=O)[C@H](Cc1c[nH]cn1)NC(=O)[C@H](Cc1ccccc1)NC(=O)[C@H](C)NC(=O)[C@H](CCCCN)NC(=O)CNC(=O)[C@H](Cc1ccccc1)NC(=O)CN)C(=O)N[C@@H](CO)C(=O)N[C@@H](CC(N)=O)C(=O)N[C@@H](Cc1ccccc1)C(=O)N[C@@H](C)C(=O)N[C@@H](CCCCN)C(=O)N[C@@H](CCCCN)C(=O)N[C@@H](Cc1c[nH]cn1)C(=O)N[C@@H](CCCCN)C(=O)N[C@H](C(=O)N[C@@H](C)C(N)=O)[C@@H](C)O — MIC (broth microdilution; USA300 LAC; 37 °C): > 100 µM
CC(C)=CCCC(C)CC1CC(=O)c2c(O)cc(O)cc2O1 (centres unmarked) — MIC (broth microdilution; MRSA NRS70): 3.13 to 6.25 µg/mL
CC(C)C[C@H](NC(=O)[C@H](C)NC(=O)CNC(=O)[C@H](CC(C)C)NC(=O)[C@H](CC(C)C)NC(=O)[C@H](CCCCN)NC(=O)[C@H](CCCCN)NC(=O)[C@H](CC(C)C)NC(=O)[C@H](CC(C)C)NC(=O)[C@H](CCCCN)NC(=O)[C@H](CC(C)C)NC(=O)[C@H](CC(C)C)NC(=O)[C@@H](N)CCCCN)C(=O)NCC(N)=O — MIC (SH1000 GFP-expressing, nutrient broth; 20 h, 37 °C): 10 µM
CC[C@H](C)[C@H](NC(=O)CNC(=O)[C@H](CCCNC(=N)N)NC(=O)[C@H](Cc1ccccc1)NC(=O)[C@@H](NC(=O)[C@H](Cc1c[nH]cn1)NC(=O)[C@H](Cc1c[nH]cn1)NC(=O)[C@H](Cc1ccccc1)NC(=O)[C@@H](N)Cc1ccccc1)[C@@H](C)CC)C(=O)N[C@H](C(=O)N[C@@H](Cc1c[nH]cn1)C(=O)N[C@H](C(=O)NCC(=O)N[C@@H](CCCCN)C(=O)N[C@H](C(=O)N[C@@H](C)C(=O)N[C@@H](Cc1c[nH]cn1)C(=O)N[C@@H](CCCNC(=N)N)C(=O)N[C@@H](CC(C)C)C(=O)N[C@H](C(=O)N[C@H](C(=O)NCC(N)=O)[C@@H](C)O)C(C)C)[C@@H](C)O)C(C)C)C(C)C — MIC (broth microdilution; MRSA clinical isolate, brain heart infusion; 18 h, 37 °C): 3.1 µg/mL
CC[C@H](C)[C@H](N)C(=O)N[C@@H](CCCCN)C(=O)N[C@@H](Cc1c[nH]c2ccccc12)C(=O)N[C@@H](CCCCN)C(=O)N[C@@H](CCCCN)C(=O)N[C@@H](CC(C)C)C(=O)N[C@@H](CC(C)C)C(=O)N[C@@H](CCCNC(=N)N)C(=O)N[C@@H](C)C(=O)N[C@@H](C)C(=O)N[C@@H](CCCCN)C(=O)N[C@@H](CCCNC(=N)N)C(=O)N[C@H](C(=O)N[C@@H](CC(C)C)C(N)=O)[C@@H](C)CC — MIC (broth microdilution; USA300 LAC; 37 °C): 6.2 µM
CC[C@H](C)[C@H](NC(=O)[C@H](CC(=O)O)NC(=O)[C@H](Cc1ccccc1)NC(=O)[C@H](CC(C)C)NC(=O)CN)C(=O)N[C@H](C(=O)N[C@@H](CCCCN)C(=O)N[C@@H](CCCCN)C(=O)N[C@H](C(=O)N[C@H](C(=O)NCC(=O)N[C@@H](CC(C)C)C(=O)N[C@@H](CC(C)C)C(=O)N[C@@H](CCCCN)C(N)=O)C(C)C)C(C)C)C(C)C — MIC (ATCC 43300, CAMHB; 18 h, 37 °C): > 21 µM
magainin 2 — MIC (serial dilution; ATCC 25923; 24 h, 37 °C): 20.6 ± 1.3 µg/mL
CC[C@H](C)[C@H](NC(=O)[C@H](CC(=O)O)NC(=O)[C@H](Cc1ccccc1)NC(=O)[C@H](CC(C)C)NC(=O)CN)C(=O)N[C@H](C(=O)N[C@@H](CCCCN)C(=O)N[C@@H](CCCCN)C(=O)N[C@H](C(=O)N[C@H](C(=O)NCC(=O)N[C@@H](C)C(=O)N[C@@H](CC(C)C)C(=O)N[C@@H](CCCCN)C(N)=O)C(C)C)C(C)C)C(C)C — MIC (ATCC 43300, CAMHB; 18 h, 37 °C): > 22 µM
O=[N+]([O-])c1ccc(Oc2cccc3cccnc23)c([N+](=O)[O-])c1 — MIC (microbial growth; ATCC25923): 125 µg/mL

Repeated from above:
CC[C@H](C)[C@H](N)C(=O)N[C@@H](CCCCN)C(=O)N[C@@H](Cc1c[nH]c2ccccc12)C(=O)N[C@@H](CCCCN)C(=O)N[C@@H](CCCCN)C(=O)N[C@@H](CC(C)C)C(=O)N[C@@H](CC(C)C)C(=O)N[C@@H](CCCNC(=N)N)C(=O)N[C@@H](C)C(=O)N[C@@H](C)C(=O)N[C@@H](CCCCN)C(=O)N[C@@H](CCCNC(=N)N)C(=O)N[C@H](C(=O)N[C@@H](CC(C)C)C(N)=O)[C@@H](C)CC — MIC (broth microdilution; USA300 LAC; 37 °C): 6.2 µM
O=[N+]([O-])c1ccc(-n2ccnc2)c([N+](=O)[O-])c1 — MIC (microbial growth; ATCC25923): 125 µg/mL
